Measurements collected from several papers.
Each numbered part is a random draw from the data of one study; scales do not carry over between parts. Positions count from the first letter of the parent shown.

Study 1
Target: RNA binding protein fox-1 homolog 2, RRM domain, GST-SBP tag (RBFOX2, Homo sapiens, UniProt O43251-10, residues 100-194)
Method: RNA Bind-n-Seq
Molecule type: RNA
Matrix: in vitro
Concentration: 365 nM
Setting: natural RNA segment, single round, ends assumed
Reference: no-protein control
Reading: higher = stronger binding
Target sequence (chain): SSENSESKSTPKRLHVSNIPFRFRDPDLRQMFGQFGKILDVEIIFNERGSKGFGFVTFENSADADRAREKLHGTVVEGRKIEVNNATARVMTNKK
`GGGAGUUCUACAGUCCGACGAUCUGAGAAAGUUAAUAUGUGGCCUCCUUUUCUGAAGCCAGAUCAAACUGUUACCUUGUGUUCCACCUUGAAUCUCACAGCGUCCCCUUCUGCAAUGUAGGUCUCCUUCCUGUUGGAAUUCUCGGGUGCCAA` — result for “RBNS enrichment (R)”: 0.476.
Under “RBNS enrichment (R)”, `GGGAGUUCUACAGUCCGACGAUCUUUUGCCAAUAUAAUGAGUAUUACAUUGGCCUUGGGGGACAGAAAGGAGGAAGUUCUGACUUUUCAGGGCUACCUUAUUUCUACUAAGGACCCAGAGCAGGCCUGUCCAUUGGAAUUCUCGGGUGCCAA` is recorded as 0.227.
`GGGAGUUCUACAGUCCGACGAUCUGGUUGAACAAGGGAAUCACAAGAAAACGAAAAUGCAAAAACUGAACUUCGGGGGUCGUUCUGUGCCUUCCAGCAUCUUGUACAGCAAAUCCUGACUCGUGUCUUUUUACUGGAAUUCUCGGGUGCCAA`: “RBNS enrichment (R)” 1.21.
For `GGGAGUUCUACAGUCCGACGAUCACUAAUUCUCAAAUGGCUCAAGAACAUUAGAAUUUAAGUACCUUUUAGAGUAAUUAUUUUAAGCAAAUAGCCUGGACGUAAGAGAUUCUCAUGCCAGCAUGCUUUCAUUUUGGAAUUCUCGGGUGCCAA`, “RBNS enrichment (R)” read 2.27.
`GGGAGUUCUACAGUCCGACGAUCUUUUCUAUAUGGGGAUUUUCUAUUUAUGUAGGUAAUAUUGUUCUAUUUGUAUAUAUUGAGAUAAUUUAUUUAAUAUACUUUAAAUAAAGGUGACUGGGAAUUGUUACUGUUGGAAUUCUCGGGUGCCAA` — result for “RBNS enrichment (R)”: 0.864.
For `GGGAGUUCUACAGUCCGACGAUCACAACCUAUUUUCUGGUUGUUGUCAGCUUGCCCCUGUCUAUACAGCUUGUUACGUGAAUUCAACAAGCUGUCUUCUUAACGGGAGCCCUCAUUCUGGUUUAUUUAUUAUGUGGAAUUCUCGGGUGCCAA`, “RBNS enrichment (R)” read 0.269.
For `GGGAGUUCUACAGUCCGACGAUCACACUGUUAUAGUUAAUCUGACAAAAAUGUCCUCAAAGAGUACUUUAUUUUAUUUAAAGCAUCUGUUUAAUUCAACCUUUAAUAAUUUUGCAAAGAAGGGUAUGUGUGUAUGGAAUUCUCGGGUGCCAA`, “RBNS enrichment (R)” read 0.804.
Under “RBNS enrichment (R)”, `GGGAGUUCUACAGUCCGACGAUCUUUAUUUAUCUCUCAUUCUGUAUAGAAUUCUUGCCGCCAUCCCAGGUCUAGCCUUAGGAGCAAAUGUAGUAGAUAGUCGAAUAAUAAAUAACUUAAUGUUUUGGACAUAUUGGAAUUCUCGGGUGCCAA` is recorded as 0.456.
`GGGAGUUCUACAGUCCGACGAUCUGGAAGAAAUAUAUUUGCAUAUUGAAAAGCACAGAGGAUUUCUUUAGUGUCAUUGCCGAUUUUGGCUAUAACAGUGUCUUUCUAGCCAUAAUAAAAUAAAACAAAAUCUUUGGAAUUCUCGGGUGCCAA`: “RBNS enrichment (R)” 0.785.
`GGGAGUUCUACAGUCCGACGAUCAAAAGAUAAAAAAUAUACAUAACGAUGAAAAAUAAUACAAAUUUAAAAACCAAUACAGUAUAACAACUAUUUACAUAGUGCUUACAUUGUAUUAGGUGUUAUAAGCAAUCUGGAAUUCUCGGGUGCCAA`: “RBNS enrichment (R)” 1.02.
For `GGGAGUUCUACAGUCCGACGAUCCUGAGCGGGCCCUCCAGUGUUGUCCAAGGAAAUGUAGAAUCACUUUGUAGAUAUGGAGAUGAAGAAGACAAAUCUUUAUUAUAAUAUUGAUCAGUUUUAUGCCGCAUUGUUGGAAUUCUCGGGUGCCAA`, “RBNS enrichment (R)” read 0.526.
`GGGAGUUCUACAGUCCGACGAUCGUAUAGCCUUCCACAUAGAUCUGCAUCAUGUAAGCUCAGGUUACUAUGAUUCCCUUCAGUUUCCUUCCAGAAUAUCCAACUUAUAUAACACUUCAAAAAUUAUCUUCAAUUGGAAUUCUCGGGUGCCAA`: “RBNS enrichment (R)” 0.359.

Study 2
Target: CEBPE, bZIP domain (human)
Method: DHFR protein complementation
Matrix: yeast
Setting: single substitutions, most at no-binding floor
Reference: wild-type JUN-FOS pair
Reading: higher = stronger binding
Parent: JUN, bZIP domain (human); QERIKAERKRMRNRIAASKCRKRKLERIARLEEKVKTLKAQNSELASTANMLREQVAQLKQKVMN; partner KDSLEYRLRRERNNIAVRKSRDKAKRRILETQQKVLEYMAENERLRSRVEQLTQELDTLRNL
For `R53N`, the binding fitness was -1.24 natural log.
With `A29G` the binding fitness was -1.26 natural log.
`L52M` has a binding fitness of -1.42 natural log.
For `A46C`, the binding fitness was -1.24 natural log.
For `Q41K`, the binding fitness was -1.32 natural log.
The binding fitness of `K36Q` is reported as -1.24 natural log.
With `A57E` the binding fitness was -0.847 natural log.
`E44Q` gave a binding fitness of -1.15 natural log.
For `T37M`, the binding fitness was -0.366 natural log.
`T48D` has a binding fitness of -1.39 natural log.
`L45H` gave a binding fitness of -1.61 natural log.
With `K36D` the binding fitness was -1.18 natural log.
With `L45N` the binding fitness was -1.49 natural log.
`L52P` gave a binding fitness of -1.55 natural log.
`A49N` has a binding fitness of -1.48 natural log.
`K39P` has a binding fitness of -1.51 natural log.
`E32K` gave a binding fitness of -1.34 natural log.
With `A29R` the binding fitness was -1.11 natural log.
`A40V` gave a binding fitness of -1.22 natural log.

Study 3
Target: CCNB3, cyclin fold, Cln2 fusion (human)
Method: yeast growth competition, sequencing
Matrix: yeast
Setting: strong parent motif
Reference: not given
Reading: higher = stronger binding
Parent: RBL2 docking peptide (human); STTRRRLFVENDS; partner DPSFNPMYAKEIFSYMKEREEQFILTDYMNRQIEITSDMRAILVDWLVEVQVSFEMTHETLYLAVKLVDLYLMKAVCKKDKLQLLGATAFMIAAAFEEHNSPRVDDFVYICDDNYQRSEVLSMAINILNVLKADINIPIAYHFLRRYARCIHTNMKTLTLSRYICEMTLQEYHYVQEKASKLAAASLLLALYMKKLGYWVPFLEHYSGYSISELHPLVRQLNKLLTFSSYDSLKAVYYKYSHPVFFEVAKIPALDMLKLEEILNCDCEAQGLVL
`R6I`: “normalised enrichment score” 1.43.
Under “normalised enrichment score”, `N11T` is recorded as 0.836.
For `D12N`, “normalised enrichment score” read 0.378.
For `E10R`, “normalised enrichment score” read 0.209.
`S13C` — result for “normalised enrichment score”: 0.842.
`T3P`: “normalised enrichment score” 1.81.
`R4M`: “normalised enrichment score” -0.355.
For `V9D`, “normalised enrichment score” read 0.788.
`F8Y`: “normalised enrichment score” 0.279.
`R4S` — result for “normalised enrichment score”: 0.197.
For `T2S`, “normalised enrichment score” read 1.15.
`N11I` — result for “normalised enrichment score”: 0.307.
Under “normalised enrichment score”, `D12Y` is recorded as 0.909.
`V9G` — result for “normalised enrichment score”: 0.759.
`E10N`: “normalised enrichment score” 0.597.
`R5N` — result for “normalised enrichment score”: 0.211.
`T2W`: “normalised enrichment score” 1.41.

Study 4
Molecule: PhoQ, residues 284 288 289 292 302 303 GASLAW
Method: Sort-seq
Refers to: YFP reporter
Matrix: E. coli
Setting: PhoQ-PhoP variant library
With: 10 µM Mg2+
Reference: high Mg2+ state
Reading: higher = stronger signaling
The fold induction was 11.6 (PhoP, residues 12 14 15 18 19 SFCSL (Escherichia coli, UniProt P23836)).
It gave 2.53 for fold induction (PhoP, residues 12 14 15 18 19 AYFRS (Escherichia coli, UniProt P23836)).
It gave 0.698 for fold induction (PhoP, residues 12 14 15 18 19 HHYTI (Escherichia coli, UniProt P23836)).

Study 5
Target: ABI1, truncated, D143A, DHFR fusion (Arabidopsis thaliana)
Method: DHFR PCA, deep sequencing
Matrix: yeast
Setting: methotrexate growth selection, single substitutions
With: (+)-ABA 710 µM
Reference: wild-type fitted maximum
Reading: higher = stronger binding
Parent: PYL1, truncated, DHFR fusion (Arabidopsis thaliana); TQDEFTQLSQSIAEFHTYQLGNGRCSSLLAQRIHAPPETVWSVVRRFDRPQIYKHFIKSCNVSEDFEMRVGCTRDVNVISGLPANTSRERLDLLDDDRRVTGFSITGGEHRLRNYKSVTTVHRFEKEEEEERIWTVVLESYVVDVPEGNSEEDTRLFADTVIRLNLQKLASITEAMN
Under “relative binding score”, `L82D` is recorded as -3.62%.
`E151Q`: “relative binding score” 97.2%.
`R98G`: “relative binding score” 97%.
For `I172D`, “relative binding score” read 44.1%.
`V121C`: “relative binding score” 102%.
For `L169S`, “relative binding score” read -1.45%.
`E14K` — result for “relative binding score”: 90.3%.
For `V118W`, “relative binding score” read 41.9%.
Under “relative binding score”, `L93R` is recorded as 105%.
`I133W` — result for “relative binding score”: 102%.
For `E38P`, “relative binding score” read 87.9%.
`M176G` — result for “relative binding score”: 104%.
Under “relative binding score”, `L93Q` is recorded as 110%.

Study 6
Target: Histone acetyltransferase KAT6A, both winged helices, GST fusion (KAT6A, Homo sapiens, UniProt Q92794, residues 1-181)
Method: protein binding microarray
Molecule type: double-stranded DNA, one strand shown
Matrix: in vitro
Concentration: not given
Setting: 8-mer, flanks averaged, mean of 2 arrays, mostly near background
Reference: not given
Reading: higher = stronger binding
Residues (chain): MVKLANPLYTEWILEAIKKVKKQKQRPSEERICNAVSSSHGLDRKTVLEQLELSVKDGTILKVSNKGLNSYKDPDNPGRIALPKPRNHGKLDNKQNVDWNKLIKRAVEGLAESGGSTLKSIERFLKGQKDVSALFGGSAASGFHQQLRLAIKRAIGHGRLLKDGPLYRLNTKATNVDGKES
For `GCCCGCCA`, the E-score was 0.0921.
The E-score of `ACCGGGCC` is reported as 0.19.
The E-score of `GGTAGTAC` is reported as -0.0309.
With `ACGGGAAG` the E-score was 0.295.
With `CGCTCGCC` the E-score was 0.181.
`GACCGTTA` gave an E-score of 0.148.
The E-score of `TATTCCGA` is reported as 0.0694.
For `GTTTAGGA`, the E-score was -0.043.
For `AAGAAAGC`, the E-score was -0.119.
`ACTTCCGA` has an E-score of 0.000335.
The E-score of `CGTGGTGC` is reported as -0.0762.
With `CCATACAC` the E-score was -0.0999.
`CGAACTAA` gave an E-score of -0.18.
With `CAGCCGAG` the E-score was -0.00415.
The E-score of `AAGCACGG` is reported as 0.146.
`ACGAAAGA` gave an E-score of -0.0995.
With `GCGTCACA` the E-score was 0.0726.
With `AAGAGGAA` the E-score was -0.174.
The E-score of `CACAGAGC` is reported as 0.0114.
With `CTGAACTC` the E-score was -0.304.
`GAAGGGCC` has an E-score of -0.0237.
With `CTTTCTTC` the E-score was -0.0818.
The E-score of `GGGCTCTA` is reported as -0.164.
For `TACTTCAA`, the E-score was -0.207.
For `CCGGTAAC`, the E-score was 0.161.

Some of these lines once more (study 2):
The binding fitness of `K36Q` is reported as -1.24 natural log.
With `A57E` the binding fitness was -0.847 natural log.
`E44Q` gave a binding fitness of -1.15 natural log.
For `T37M`, the binding fitness was -0.366 natural log.
`T48D` has a binding fitness of -1.39 natural log.
`L45H` gave a binding fitness of -1.61 natural log.
With `K36D` the binding fitness was -1.18 natural log.
With `L45N` the binding fitness was -1.49 natural log.
`L52P` gave a binding fitness of -1.55 natural log.
`A49N` has a binding fitness of -1.48 natural log.
`K39P` has a binding fitness of -1.51 natural log.
